Published values from different studies.
Every numbered part comes from another study and shows a few of its results, in no order. Several values in a cell are separate wells, animals, samples, runs or records.
UniProt P61075, sequence (whole entry, looked up): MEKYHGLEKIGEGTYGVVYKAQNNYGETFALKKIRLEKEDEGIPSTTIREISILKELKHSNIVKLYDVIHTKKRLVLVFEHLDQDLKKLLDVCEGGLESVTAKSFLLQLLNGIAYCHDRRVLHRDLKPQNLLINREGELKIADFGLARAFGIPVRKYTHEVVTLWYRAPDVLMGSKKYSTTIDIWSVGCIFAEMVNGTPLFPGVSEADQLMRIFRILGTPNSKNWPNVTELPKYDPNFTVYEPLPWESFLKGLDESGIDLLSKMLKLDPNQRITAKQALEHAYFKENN
UniProt P9WI81, sequence (whole entry, looked up): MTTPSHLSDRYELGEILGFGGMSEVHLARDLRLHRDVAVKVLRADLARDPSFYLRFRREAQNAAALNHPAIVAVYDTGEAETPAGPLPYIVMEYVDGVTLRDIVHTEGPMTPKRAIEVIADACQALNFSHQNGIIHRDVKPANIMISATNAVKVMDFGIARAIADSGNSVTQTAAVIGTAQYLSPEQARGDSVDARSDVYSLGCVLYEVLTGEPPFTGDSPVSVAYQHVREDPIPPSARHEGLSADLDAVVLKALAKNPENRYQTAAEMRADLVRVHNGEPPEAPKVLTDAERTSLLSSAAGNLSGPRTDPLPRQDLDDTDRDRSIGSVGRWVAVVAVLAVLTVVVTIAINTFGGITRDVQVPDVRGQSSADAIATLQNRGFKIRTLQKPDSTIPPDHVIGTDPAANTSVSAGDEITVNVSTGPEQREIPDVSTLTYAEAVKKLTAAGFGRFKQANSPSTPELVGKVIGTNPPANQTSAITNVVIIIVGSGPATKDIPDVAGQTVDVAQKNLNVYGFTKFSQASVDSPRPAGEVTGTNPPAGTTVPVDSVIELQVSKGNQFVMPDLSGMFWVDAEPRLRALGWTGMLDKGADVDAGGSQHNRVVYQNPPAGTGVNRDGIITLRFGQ
UniProt Q96GD4, sequence (whole entry, looked up): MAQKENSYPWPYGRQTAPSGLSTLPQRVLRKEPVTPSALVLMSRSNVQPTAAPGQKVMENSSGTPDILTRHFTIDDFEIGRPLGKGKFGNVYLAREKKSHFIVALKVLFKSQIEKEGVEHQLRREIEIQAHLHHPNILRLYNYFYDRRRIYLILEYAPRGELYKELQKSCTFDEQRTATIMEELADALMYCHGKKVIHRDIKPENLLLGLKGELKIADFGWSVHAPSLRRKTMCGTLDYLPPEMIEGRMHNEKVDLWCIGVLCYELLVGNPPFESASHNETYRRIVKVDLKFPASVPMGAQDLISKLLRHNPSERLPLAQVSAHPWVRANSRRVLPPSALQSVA
UniProt P28335, sequence (whole entry, looked up): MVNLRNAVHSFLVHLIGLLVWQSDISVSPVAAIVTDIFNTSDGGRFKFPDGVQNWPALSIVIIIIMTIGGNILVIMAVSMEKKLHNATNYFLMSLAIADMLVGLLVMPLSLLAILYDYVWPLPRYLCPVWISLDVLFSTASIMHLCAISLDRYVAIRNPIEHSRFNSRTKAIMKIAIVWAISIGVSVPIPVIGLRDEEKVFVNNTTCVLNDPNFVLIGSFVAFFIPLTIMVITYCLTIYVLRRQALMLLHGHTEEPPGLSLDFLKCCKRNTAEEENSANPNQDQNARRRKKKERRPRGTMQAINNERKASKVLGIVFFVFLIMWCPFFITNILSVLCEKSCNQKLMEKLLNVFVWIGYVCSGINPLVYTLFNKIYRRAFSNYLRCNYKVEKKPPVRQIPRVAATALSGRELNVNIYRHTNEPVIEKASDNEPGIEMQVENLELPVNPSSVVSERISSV
UniProt Q9UQM7, sequence (whole entry, looked up): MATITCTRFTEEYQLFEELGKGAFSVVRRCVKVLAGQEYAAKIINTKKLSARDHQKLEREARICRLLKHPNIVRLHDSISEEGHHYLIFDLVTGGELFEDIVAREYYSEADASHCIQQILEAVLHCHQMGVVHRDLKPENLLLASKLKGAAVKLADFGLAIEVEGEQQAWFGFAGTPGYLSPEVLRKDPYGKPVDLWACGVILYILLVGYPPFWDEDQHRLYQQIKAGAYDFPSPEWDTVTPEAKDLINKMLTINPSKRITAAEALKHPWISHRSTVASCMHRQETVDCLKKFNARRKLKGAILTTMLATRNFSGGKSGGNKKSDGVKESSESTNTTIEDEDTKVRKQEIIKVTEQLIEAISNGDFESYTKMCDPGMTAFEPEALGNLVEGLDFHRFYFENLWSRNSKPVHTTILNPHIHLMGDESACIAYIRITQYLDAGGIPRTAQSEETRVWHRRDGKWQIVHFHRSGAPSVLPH

Sample 1 — observed: enzyme activity; action: inhibitor; method: radiometric; tested at: 0.5 µM
Target: Serine/threonine-protein kinase 33 (STK33, Homo sapiens, UniProt Q9BYT3)
UniProt Q9BYT3, sequence (whole entry, looked up): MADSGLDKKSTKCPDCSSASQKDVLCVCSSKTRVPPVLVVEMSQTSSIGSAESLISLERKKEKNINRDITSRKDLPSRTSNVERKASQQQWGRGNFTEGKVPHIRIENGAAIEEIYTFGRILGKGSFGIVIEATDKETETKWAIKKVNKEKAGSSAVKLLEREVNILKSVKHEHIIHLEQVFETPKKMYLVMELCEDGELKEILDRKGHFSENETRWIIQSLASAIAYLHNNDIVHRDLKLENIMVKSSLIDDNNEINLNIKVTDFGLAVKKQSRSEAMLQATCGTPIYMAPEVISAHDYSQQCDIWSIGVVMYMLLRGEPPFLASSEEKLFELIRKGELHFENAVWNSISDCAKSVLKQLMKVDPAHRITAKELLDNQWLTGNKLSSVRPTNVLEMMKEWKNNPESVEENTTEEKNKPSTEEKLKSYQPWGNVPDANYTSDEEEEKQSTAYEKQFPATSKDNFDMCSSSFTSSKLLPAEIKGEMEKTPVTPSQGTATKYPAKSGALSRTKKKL
Compound	remaining activity
CC(C)N(CCC(=O)c1ccc2ccccc2c1)Cc1ccccc1	104%
COc1cc2c(Nc3ccc(Br)cc3F)ncnc2cc1OCC1CCN(C)CC1	85.1%
CCCCc1c(-c2ccc(O)cc2)[nH]c2nccnc12	80.8%
NC(=O)c1cccc(-c2cc(Nc3ccc(OC(F)(F)F)cc3)ncn2)c1	92.1%
N#C/C(=C(/N)SC1C=CC=CC1)c1cccc(C(O)c2ccncc2)c1 (centres unmarked)	95.5%
O=C1NC(=O)/C(=C/c2ccc3c(c2)OC(F)(F)O3)S1	90.8%
FC(F)(F)c1ccc(/C=C/c2nc(COc3ccc(CCCCn4ccnn4)cc3)co2)cc1	93.7%
O=Nc1c(-c2c(O)[nH]c3ccccc23)[nH]c2ccccc12	44.1%
CC(C)n1cnc2c(Nc3cccc(Cl)c3)nc(NCCO)nc21	68.1%
O=C1c2ccccc2-c2nc3nnnn3nc21	107%
C[C@@H](N)[C@H]1CC[C@H](C(=O)Nc2ccncc2)CC1	103%
N#CC(c1ccnc(NCCc2cccnc2)n1)c1nc2ccccc2s1 (centres unmarked)	55.4%
c1cc(-c2cnn3cc(-c4ccc(OCCN5CCCCC5)cc4)cnc23)ccn1	37.4%
O=C(O)/C=C/c1cc(Br)c(Br)c(Br)c1Br	67.9%
CCN(CC)CCCCN1c2ccccc2Oc2ccc(Cl)cc21	89.9%
O=C(c1ccccc1)c1ccc(N2CCOCC2)cc1O	108%
COc1cc2c(N3CCN(C(=O)Nc4ccc(OC(C)C)cc4)CC3)ncnc2cc1OCCCN1CCCCC1	91.1%
CNc1cc2c(Nc3cccc(Br)c3)ncnc2cn1	95.2%
O=c1c(-c2ccc(F)cc2)c(-c2ccncc2)[nH]n1-c1ccc(Cl)cc1	101%
Clc1ccc(Nc2nnc(Cc3ccncc3)c3ccccc23)cc1	94.2%
NC(=O)c1ccc(-c2nc(-c3ccc4c(c3)OCCO4)c(-c3ccccn3)[nH]2)cc1	98.3%
Nc1nc(Nc2ccc(S(N)(=O)=O)cc2)nn1C(=S)Nc1c(F)cccc1F	35.1%
CC(C)(C)c1nc2c3cc[nH]c(=O)c3c3cc(F)ccc3c2[nH]1	53.8%

Sample 2 — observed: RNA clamping; method: fluorescence polarization; tested at: concentration not given; setting: mean of two replicates; with: FAM-labelled poly r(AG)8 RNA
Target: Eukaryotic initiation factor 4A-III (Homo sapiens, UniProt P38919)
UniProt P38919, sequence (whole entry, looked up): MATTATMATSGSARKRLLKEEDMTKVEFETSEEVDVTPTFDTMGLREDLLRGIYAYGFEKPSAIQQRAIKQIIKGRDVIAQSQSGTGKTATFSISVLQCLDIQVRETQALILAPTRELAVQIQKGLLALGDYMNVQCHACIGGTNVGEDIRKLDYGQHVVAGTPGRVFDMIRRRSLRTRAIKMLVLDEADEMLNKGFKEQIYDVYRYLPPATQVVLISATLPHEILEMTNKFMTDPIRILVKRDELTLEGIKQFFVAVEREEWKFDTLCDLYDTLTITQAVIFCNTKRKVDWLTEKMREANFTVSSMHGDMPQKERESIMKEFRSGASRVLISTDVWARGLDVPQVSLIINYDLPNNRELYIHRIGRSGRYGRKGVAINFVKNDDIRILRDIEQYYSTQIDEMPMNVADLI
Compound	fluorescence polarization change
COC(=O)[C@@H]1[C@@H](c2ccccc2)[C@]2(c3ccc(OC)cc3)Oc3cc(OC)cc(OC)c3[C@@]1(O)[C@H]2O	5 mP
COc1ccc([C@@]23Oc4cc(OC)cc(OC)c4[C@]2(O)c2nc(Cc4ccccc4)[nH]c(=O)c2[C@H]3c2ccccc2)cc1	16.4 mP
COc1ccc([C@@]23Oc4cc(OC)cc(OC)c4[C@]2(O)c2nc(-c4ccc(F)cc4)[nH]c(=O)c2[C@H]3c2ccccc2)cc1	7.9 mP
CONC(=O)[C@H]1[C@@H](O)[C@@]2(O)c3c(OC)cc(OC)cc3O[C@@]2(c2ccc(OC)cc2)[C@@H]1c1ccccc1	28.3 mP and 55.5 mP and 53.1 mP
COC(=O)[C@@H]1[C@@H](c2ccccc2)[C@@]2(c3ccc(Br)cc3)C(=O)[C@]1(O)c1c(OC)cc(OC)cc1N2C	3 mP
COC(=O)[C@@H]1[C@@H](c2ccccc2)C2(c3ccc(OC)cc3)C(=O)C1(O)c1ccccc1N2C (some centres unmarked)	-6.4 mP
COc1ccc([C@@]23Oc4cc(OC)cc(OC)c4[C@]2(O)C(=O)C[C@H]3c2ccccc2)cc1	32.6 mP
C#CCOc1nc(-c2ccccc2)nc2c1[C@@H](c1ccccc1)[C@]1(c3ccc(OC)cc3)Oc3cc(OC)cc(OC)c3[C@]21OCC#C	11.6 mP

Sample 3 — host: C57BL/6 CES1-/- mouse, both sexes
Compound: CC(=O)N[C@@H](Cc1c[nH]c2ccccc12)C(=O)N[C@@H](CCC(=O)C=[N+]=[N-])C(=O)OC(C)C
dose	time	body weight
0.3 mg/kg	day 18	95.7% and 100% and 96.4%
0.3 mg/kg	day 14	95.7% and 100% and 103%
0.1 mg/kg	day 16	96.6% and 104% and 105% and 109% and 100% and 114%
1 mg/kg	day 15	100% and 93.9% and 93.1% and 90.9%
0.1 mg/kg	day 7	100%

Sample 4 — matrix: plasma; route: intravenous; dose: 1.0 mg/kg
SMILES: O=C1CCC(N2Cc3c(ccc4c3OCC43CCN(Cc4ccccc4)CC3)C2=O)C(=O)N1 (centres unmarked)
host	terminal volume of distribution [L/kg]
ICR mice, male	5.55
Sprague Dawley rats, male	3.69
Sprague Dawley rat, male	3.81

Single results of other studies
SMILES	target or system	assay	test system	conditions	how to read	endpoint	result
CN1CCN(c2cnc3c(C4CCN(C(=O)c5ccc(OC(F)(F)F)cc5N)CC4)ncnc3c2)CC1	pknB (Mycobacterium tuberculosis, UniProt P9WI81)	cell-free assay, competition with immobilised ligand	–	1 µM	–	remaining binding	97%
O=C1CCC[C@@H]2[C@H]3CCCN4CCC[C@@H](CN12)[C@@H]34	CAMK2A (Homo sapiens, UniProt Q9UQM7)	enzyme activity, inhibitor	–	10 µM	–	inhibition	2%
O[C@]1(C(F)(F)F)CCCC[C@H]1Nc1ccc(F)cc1	HTR2C (Homo sapiens, UniProt P28335)	binding, radioligand binding	–	10 µM	–	inhibition	23.4%
CC(C)n1nc(O)c2c1NC(=O)CSC2c1ccc(C(=O)O)cc1 (centres unmarked)	–	–	mouse, microsomes or S9	2 µM, 0.5 h	–	remaining compound	85.6%
Cc1noc([C@H]2C[C@@H](c3ccc(C(F)(F)F)cc3)CN(C(=O)N3CCS(=O)(=O)C3)C2)n1	CRK2 (Plasmodium falciparum, UniProt P61075)	cell-free assay, competition with immobilised ligand	–	1 µM	–	remaining binding	80%
CN[C@H](CC(C)C)C(=O)N[C@H]1C(=O)N[C@@H](CC(N)=O)C(=O)N[C@H]2C(=O)N[C@H]3C(=O)N[C@H](C(=O)N[C@H](C(=O)O)c4cc(O)cc(O)c4-c4cc3ccc4O)[C@H](O)c3ccc(c(Cl)c3)Oc3cc2cc(c3O[C@@H]2O[C@H](CO)[C@@H](O)[C@H](O)[C@H]2O[C@H]2C[C@](C)(N)[C@H](O)[C@H](C)O2)Oc2ccc(cc2Cl)[C@H]1O	Staphylococcus aureus	–	hemB transposon mutant	concentration not given	baseline: wild type	MIC change	no effect
CC12CC3(C(=O)Nc4ccc(Cl)cc4C(=O)c4ccccc4)C1CCC23C (centres unmarked)	–	–	mouse, microsomes or S9	2 µM, 0.5 h	–	remaining compound	2.4%
Cn1cncc1[C@](O)(COc1ccc(C#N)cc1-c1ccc(OC(F)(F)F)cc1)c1ccc(C#N)cc1	Aurora kinase B (AURKB, Homo sapiens, UniProt Q96GD4)	binding, competition with immobilised ligand	–	–	–	Kd	> 10 µM
